Assay results of several laboratories.
Compare with care: the assays were run in different laboratories. Several values in a cell are separate wells, animals, samples, runs or records. ± gives the spread as reported.
IDE: Insulin-degrading enzyme (IDE, Homo sapiens, UniProt P14735)
Broad substrate specificity ATP-binding cassette transporter ABCG2: Broad substrate specificity ATP-binding cassette transporter ABCG2 (Mus musculus, UniProt Q7TMS5)
UniProt Q7TMS5, sequence (whole entry, looked up): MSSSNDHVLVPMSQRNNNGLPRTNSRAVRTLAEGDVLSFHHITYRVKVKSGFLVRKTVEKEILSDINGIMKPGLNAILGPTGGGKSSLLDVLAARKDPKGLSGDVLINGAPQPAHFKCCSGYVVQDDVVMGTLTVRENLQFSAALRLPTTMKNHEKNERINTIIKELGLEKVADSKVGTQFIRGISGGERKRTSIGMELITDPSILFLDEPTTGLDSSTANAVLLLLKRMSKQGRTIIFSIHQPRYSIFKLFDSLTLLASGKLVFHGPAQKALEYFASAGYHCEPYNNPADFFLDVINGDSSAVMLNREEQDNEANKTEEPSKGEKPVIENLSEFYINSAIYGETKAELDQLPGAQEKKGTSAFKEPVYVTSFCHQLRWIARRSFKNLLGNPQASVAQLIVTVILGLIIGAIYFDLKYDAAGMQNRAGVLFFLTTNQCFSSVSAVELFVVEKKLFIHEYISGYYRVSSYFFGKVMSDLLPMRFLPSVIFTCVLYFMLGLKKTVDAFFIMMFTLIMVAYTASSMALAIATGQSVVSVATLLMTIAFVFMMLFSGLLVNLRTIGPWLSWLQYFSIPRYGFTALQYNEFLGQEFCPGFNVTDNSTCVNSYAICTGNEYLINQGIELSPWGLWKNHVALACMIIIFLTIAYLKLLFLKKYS
CYP2E1: Cytochrome P450 2E1 (CYP2E1, Homo sapiens, UniProt P05181)
UniProt P05181, sequence (whole entry, looked up): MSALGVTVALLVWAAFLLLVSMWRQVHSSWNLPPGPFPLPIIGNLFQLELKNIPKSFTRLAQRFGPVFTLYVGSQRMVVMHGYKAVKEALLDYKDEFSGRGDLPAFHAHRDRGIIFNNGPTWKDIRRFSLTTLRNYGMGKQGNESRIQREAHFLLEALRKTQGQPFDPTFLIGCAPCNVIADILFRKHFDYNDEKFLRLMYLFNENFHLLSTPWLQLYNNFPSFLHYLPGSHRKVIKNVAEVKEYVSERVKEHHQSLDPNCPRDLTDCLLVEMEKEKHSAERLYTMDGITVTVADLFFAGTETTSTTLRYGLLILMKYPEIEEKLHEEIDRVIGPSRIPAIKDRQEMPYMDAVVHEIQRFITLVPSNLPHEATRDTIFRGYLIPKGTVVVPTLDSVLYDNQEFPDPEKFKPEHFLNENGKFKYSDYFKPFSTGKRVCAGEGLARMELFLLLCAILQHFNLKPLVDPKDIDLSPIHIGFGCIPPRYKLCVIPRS
SLCO1B1: Solute carrier organic anion transporter family member 1B1 (SLCO1B1, Homo sapiens, UniProt Q9Y6L6)
UniProt Q9Y6L6, sequence (whole entry, looked up): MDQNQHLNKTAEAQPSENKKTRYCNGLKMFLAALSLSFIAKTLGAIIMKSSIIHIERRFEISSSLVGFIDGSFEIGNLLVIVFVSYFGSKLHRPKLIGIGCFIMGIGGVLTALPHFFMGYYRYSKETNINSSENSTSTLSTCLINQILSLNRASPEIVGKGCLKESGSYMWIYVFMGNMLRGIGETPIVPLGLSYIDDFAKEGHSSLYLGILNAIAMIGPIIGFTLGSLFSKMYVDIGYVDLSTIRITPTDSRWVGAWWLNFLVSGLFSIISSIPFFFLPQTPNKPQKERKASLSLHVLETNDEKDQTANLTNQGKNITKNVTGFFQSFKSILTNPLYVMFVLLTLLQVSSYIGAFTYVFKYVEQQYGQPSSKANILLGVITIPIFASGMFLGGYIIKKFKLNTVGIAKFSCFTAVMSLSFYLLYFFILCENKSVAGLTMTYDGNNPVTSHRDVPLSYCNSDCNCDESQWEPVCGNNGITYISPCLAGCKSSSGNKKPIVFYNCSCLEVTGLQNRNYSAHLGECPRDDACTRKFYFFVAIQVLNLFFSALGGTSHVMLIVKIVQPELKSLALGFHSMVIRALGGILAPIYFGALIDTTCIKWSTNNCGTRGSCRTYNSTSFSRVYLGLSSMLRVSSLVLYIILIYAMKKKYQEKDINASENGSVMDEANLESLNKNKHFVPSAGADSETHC
UniProt P08684, sequence (whole entry, looked up): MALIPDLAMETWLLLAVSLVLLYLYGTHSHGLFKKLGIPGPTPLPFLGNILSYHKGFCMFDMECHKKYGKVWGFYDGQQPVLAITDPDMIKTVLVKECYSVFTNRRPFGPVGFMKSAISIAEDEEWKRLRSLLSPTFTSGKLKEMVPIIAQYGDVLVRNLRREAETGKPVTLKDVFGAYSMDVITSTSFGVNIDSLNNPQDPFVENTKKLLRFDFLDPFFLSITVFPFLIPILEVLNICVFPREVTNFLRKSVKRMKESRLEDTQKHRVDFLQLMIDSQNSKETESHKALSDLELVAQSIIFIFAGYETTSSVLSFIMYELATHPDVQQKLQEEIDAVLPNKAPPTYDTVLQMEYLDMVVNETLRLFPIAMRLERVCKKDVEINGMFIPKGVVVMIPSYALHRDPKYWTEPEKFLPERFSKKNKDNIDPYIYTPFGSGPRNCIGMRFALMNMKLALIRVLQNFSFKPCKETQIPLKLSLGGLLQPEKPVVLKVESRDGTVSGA
UniProt P49888, sequence (whole entry, looked up): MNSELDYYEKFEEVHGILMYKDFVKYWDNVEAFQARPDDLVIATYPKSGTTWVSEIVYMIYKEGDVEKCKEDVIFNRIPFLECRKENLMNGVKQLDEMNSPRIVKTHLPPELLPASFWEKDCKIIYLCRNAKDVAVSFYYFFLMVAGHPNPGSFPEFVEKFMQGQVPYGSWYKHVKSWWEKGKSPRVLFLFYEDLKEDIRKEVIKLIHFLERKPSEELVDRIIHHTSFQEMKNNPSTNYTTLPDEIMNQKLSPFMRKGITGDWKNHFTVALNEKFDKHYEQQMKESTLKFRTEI
UniProt P54855, sequence (whole entry, looked up): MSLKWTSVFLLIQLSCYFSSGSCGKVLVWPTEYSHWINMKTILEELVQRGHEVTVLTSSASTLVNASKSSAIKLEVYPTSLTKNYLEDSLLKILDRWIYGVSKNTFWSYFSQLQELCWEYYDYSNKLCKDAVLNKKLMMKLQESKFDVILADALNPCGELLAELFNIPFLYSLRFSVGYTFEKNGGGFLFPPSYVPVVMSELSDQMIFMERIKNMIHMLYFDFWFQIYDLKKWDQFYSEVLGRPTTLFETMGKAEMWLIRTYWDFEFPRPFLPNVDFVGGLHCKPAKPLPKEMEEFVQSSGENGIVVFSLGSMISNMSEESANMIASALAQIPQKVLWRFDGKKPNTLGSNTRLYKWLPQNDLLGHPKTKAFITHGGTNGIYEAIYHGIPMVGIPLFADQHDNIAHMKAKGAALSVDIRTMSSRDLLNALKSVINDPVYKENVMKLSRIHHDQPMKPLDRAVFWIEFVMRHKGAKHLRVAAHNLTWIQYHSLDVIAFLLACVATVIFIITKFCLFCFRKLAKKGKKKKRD

Compound | target or system | test | test system | conditions | scale | endpoint | value
CO[C@@H]1CN(C)C(=O)c2cc(NC(=O)c3ccc(Oc4ccccc4)cc3)ccc2OC[C@@H](C)NC[C@H]1C | IDE | enzyme activity, inhibitor, fluorogenic kinetic | – | with: Mca-RPPGFSAFK(Dnp)-OH substrate | – | EC50 | 2.5 µM
O=C(O)COc1cccc(-c2nc(Nc3ccc4[nH]ncc4c3)c3ccccc3n2)c1 | UDP-glucuronosyltransferase 2B15 (UGT2B15, Homo sapiens, UniProt P54855) | enzyme activity, inhibitor | recombinant microsomes | with: diclofenac | – | IC50 | 47.8 µM
CN1C[C@@H]2C[C@H]1CN2c1cc2c(cc1F)c(=O)c(C(=O)O)cn2C1CC1 | Broad substrate specificity ATP-binding cassette transporter ABCG2 | substrate | MDCK-II transduced with mouse Abcg2 | 10 µM, 4 h, apical to basolateral | – | transport | 5.82 ± 3.48%
CC(C)=CCc1c(O)cc2c(c1O)C(=O)C[C@@H](c1ccc(O)cc1)O2 | human CYP2B6 | – | – | 10 µM, pH 7.4 | – | inhibition | 35.7 ± 1.9%
CCCCC1=NC2(CCCC2)C(=O)N1Cc1ccc(-c2ccccc2S(=O)(=O)Nc2noc(C)c2C)c(COCC)c1 | CYP3A4 | enzyme induction, inducer | human | – | – | Hill coefficient | 2.88
CC1(C)CCC2(CC1)N[C@@H](C(=O)N[C@@H]1CC[C@@H](C(N)=O)OC1)[C@H](c1ccnc(Cl)c1F)[C@]21C(=O)Nc2cc(Cl)ccc21 | ATP-dependent translocase ABCB1 (ABCB1, Homo sapiens, UniProt P08183) | – | Caco-2 monolayers | 30 µM, 120 min, no inhibitor | – | Papp B to A | 9.95 ×10⁻⁶ cm/s
CCC(=O)NCC[C@@H]1CCc2cc(O)c3c(c21)CCO3 | Sulfotransferase 1E1 (SULT1E1, Homo sapiens, UniProt P49888) | substrate, sulfation, purified enzyme | – | 10 µM, 10 min, pH 7.0, 37 °C | – | specific activity | 0.56 ± 0.02 nmol/min/mg
CC[C@H]1[C@@H](O)[C@@H]2[C@H](CC[C@]3(C)[C@@H]([C@H](C)CCNC(=O)NS(=O)(=O)c4ccc(C(C)(C)C)cc4)CC[C@@H]23)[C@@]2(C)CC[C@@H](O)C[C@@H]12 | Cytochrome P450 3A4 (CYP3A4, Homo sapiens, UniProt P08684) | substrate | human, plasma | 10 mg, alone, study day 1 | – | CL/F mean | 30.5 L/h
CCc1oc2ccccc2c1C(=O)c1cc(I)c(OC)c(I)c1 | CYP2E1 | p-nitrophenol hydroxylation, inhibitor | – | with additive 100 µM | – | Ki | 9.3 µM
N#C[C@H](C[C@@H]1CCCNC1=O)NC(=O)[C@H](CC1CC1)NC(=O)c1cc2cccc(Cl)c2[nH]1 | CYP2E1 | NADPH metabolic stability | – | 2 µM, pH 7.4, 100 pmol/mL enzyme | – | intrinsic clearance | < 0.054 µL/min/pmol
C[C@H]1CN(C2COC2)CCN1c1ccc(Nc2cc(-c3ccnc(N4CCn5c(cc6c5CC(C)(C)C6)C4=O)c3CO)cn(C)c2=O)nc1 | human CYP3A4/5 | – | human liver microsomes | 1 µM, 60 min, pH 7.4, with: ketoconazole 1 µM, NADPH | relative to: 0 min | remaining compound | 97.2 ± 10.5%
Cn1cncc1[C@@](N)(c1ccc(Cl)cc1)c1ccc2c(c1)c(-c1cccc(Cl)c1)cc(=O)n2C | human CYP2B6 | mRNA induction | – | – | – | EC50 | 14.9 µM
CCc1oc2ccccc2c1C(=O)c1cc(Br)c(OC)c(Br)c1 | CYP2E1 | p-nitrophenol hydroxylation, inhibitor | – | with additive 100 µM | – | Ki | 6.3 µM
Cc1cc(Nc2ccc(S(F)(F)(F)(F)F)cc2)n2nc(C(C)(F)F)nc2n1 | Plasmodium falciparum | 12-lead Holter ECG | human malaria patients | oral, 250 mg, QTc above 500 ms | – | patients with QTcB above threshold | 0%
CC(C)C[C@H](NC(=O)CNC(=O)c1cc(Cl)ccc1Cl)B(O)O | CYP3A4 | – | – | – | – | CYP3A4 intrinsic clearance | 0.0576 µL/min/pmol
Cc1cc(N)c2c(OCC(C)(C)C(=O)NC(C)C)cccc2n1 | Salmonella typhimurium | reverse mutation, plate incorporation | TA98 | 50 µg/plate, with rat liver S9 | – | mean revertant colonies | 27 colonies/plate
CCc1cc(/C(C)=N/OCc2ccc(C3CCCCC3)c(C(F)(F)F)c2)ccc1CN1CC(C(=O)O)C1 | SLCO1B1 | inhibitor | HEK293 transfected with SLCO1B1 | 16.8 µM, 3 min, with: estradiol-17β-glucuronide 1 µM | – | maximal inhibition | 80%
C#C[C@]1(O)CC[C@H]2[C@@H]3CCC4=CC(=NO)CC[C@@H]4[C@H]3CC[C@@]21CC (mixture of isomers) | human CYP2B6 | retrograde calculation | microsomal incubation | – | – | unbound fraction in microsomes | 1
CC(C)C[C@H](NC(=O)C[C@H](O)[C@H](CC(C)C)NC(=O)[C@H](Cc1c[nH]cn1)NC(=O)CNC(=O)[C@@H](NC(=O)[C@H](C)NC(=O)[C@H](Cc1c[nH]c2ccccc12)NC(=O)[C@H](CCC(N)=O)NC(=O)[C@@H](Cc1ccccc1)NC(=O)COCCOCCNC(=O)CCC(C(=O)O)N1CCN(CC(=O)O)CCN(CC(=O)O)CCN(CC(=O)O)CC1)C(C)C)C(N)=O (some centres unmarked) [lutetium-177 labelled] | – | – | BALB/c nu/nu mice, female, tumor | 50 pmol, 1 h, with: PA 300 µg | – | tissue uptake | 19 ± 2 %ID/g
O=C(O)[C@H]1O[C@@H](Oc2ccc([C@@H]3[C@@H](CC[C@H](O)c4ccc(F)cc4)C(=O)N3c3ccc(F)cc3)cc2)[C@H](O)[C@@H](O)[C@@H]1O | SLCO1B1 | uptake, inhibitor | MDCKII-SLCO1B1 | with: 1 µM coproporphyrin I | – | lowest inhibitory concentration | ≥ 0.1 µM
CC[C@H](CO)N(CCN(N=O)[C@H](CC)CO)N=O | Salmonella typhimurium | mutagenicity, Ames plate incorporation | TA100 | 2500 µg/plate, without S9, methanol | – | revertant colonies per plate | 155 ± 28
C[Si](C)(C)O[Si](C)(C)O[Si](C)(C)C | Oncorhynchus mykiss | IVIVE from liver S9 | – | – | – | hepatic biotransformation rate constant | 0.298 h⁻¹ and 0.265 h⁻¹ and 0.297 h⁻¹
Cc1cc(Nc2ncnc3ccc(NC4=NC(C)(CO)CO4)cc23)ccc1Oc1ccn2ncnc2c1 (centres unmarked) | Cytochrome P450 3A4 (CYP3A4, Homo sapiens, UniProt P08684) | – | human, plasma | tucatinib, day 6, with: itraconazole | – | AUC(0-inf) (arithmetic mean) | 833 ng·h/mL
CC(=O)Nc1cccc(-n2c(=O)n(C3CC3)c(=O)c3c(Nc4ccc(I)cc4F)n(C)c(=O)c(C)c32)c1 | COLO 205 | resazurin | – | concentration not given, 72 h, unit not given | relative to: DMSO | viability | 0.285 and 0.154 and 0.991 and 0.288 and 0.192 and 0.356
Cc1ccccc1-c1ccc([C@@H]2[C@@H](CO)N3CCCCN(S(C)(=O)=O)C[C@@H]23)cc1 | IDE | enzyme activity, inhibitor, fluorogenic kinetic | – | with: Mca-RPPGFSAFK(Dnp)-OH substrate | – | EC50 | 1.3 µM
CC(C)=CCc1c(O)cc(O)c2c1O[C@H](c1ccc(O)cc1)CC2=O | human CYP2B6 | – | – | 1 µM, pH 7.4 | – | inhibition | < 10%
O=C1[C@H](CC[C@H](O)c2ccc(F)cc2)[C@@H](c2ccc(O)cc2)N1c1ccc(F)cc1 | SLCO1B1 | inhibitor, item: coproporphyrin I | MDCKII-SLCO1B1 | up to 10 µM | – | CPI accumulation | no effect
Cn1ncnc1[C@H]1c2n[nH]c(=O)c3cc(F)cc(c23)N[C@@H]1c1ccc(F)cc1 | Broad substrate specificity ATP-binding cassette transporter ABCG2 | – | MDCK-II Bcrp1-overexpressing | 1 µM, 1 h, 37 °C | relative to: vector control cells | intracellular accumulation | 83.1 ± 4.4%
O=c1c(-c2ccc(O)cc2)coc2cc(O)ccc12 | Androgen receptor (AR, Homo sapiens, UniProt P10275, Q868H) | luciferase reporter gene, antagonist | – | concentration not given, heat-inactivated rat liver microsomes | – | antagonist activity | inactive

Repeated from above:
Compound | target or system | test | test system | conditions | scale | endpoint | value
CC1(C)CCC2(CC1)N[C@@H](C(=O)N[C@@H]1CC[C@@H](C(N)=O)OC1)[C@H](c1ccnc(Cl)c1F)[C@]21C(=O)Nc2cc(Cl)ccc21 | ATP-dependent translocase ABCB1 (ABCB1, Homo sapiens, UniProt P08183) | – | Caco-2 monolayers | 30 µM, 120 min, no inhibitor | – | Papp B to A | 9.95 ×10⁻⁶ cm/s
CCC(=O)NCC[C@@H]1CCc2cc(O)c3c(c21)CCO3 | Sulfotransferase 1E1 (SULT1E1, Homo sapiens, UniProt P49888) | substrate, sulfation, purified enzyme | – | 10 µM, 10 min, pH 7.0, 37 °C | – | specific activity | 0.56 ± 0.02 nmol/min/mg
CC[C@H]1[C@@H](O)[C@@H]2[C@H](CC[C@]3(C)[C@@H]([C@H](C)CCNC(=O)NS(=O)(=O)c4ccc(C(C)(C)C)cc4)CC[C@@H]23)[C@@]2(C)CC[C@@H](O)C[C@@H]12 | Cytochrome P450 3A4 (CYP3A4, Homo sapiens, UniProt P08684) | substrate | human, plasma | 10 mg, alone, study day 1 | – | CL/F mean | 30.5 L/h
